Experimental data gathered from unrelated publications.
Lines come from different studies, so protocols differ. Several values in a cell are separate wells, animals, samples, runs or records. ± marks the error that the study gave.
KCNJ2: Inward rectifier potassium channel 2 (KCNJ2, Homo sapiens, UniProt P63252)
HTR6: 5-hydroxytryptamine receptor 6 (HTR6, Homo sapiens, UniProt P50406)
NT5E membrane-bound form: 5'-nucleotidase, membrane-bound form (NT5E, Homo sapiens, UniProt P21589)
MMP13: Collagenase 3 (MMP13, Homo sapiens, UniProt P45452)
BAZ2B: Bromodomain adjacent to zinc finger domain protein 2B (BAZ2B, Homo sapiens, UniProt Q9UIF8)
CSNK1E: Casein kinase I isoform epsilon (CSNK1E, Homo sapiens, UniProt P49674)
SIRT5: NAD-dependent protein deacylase sirtuin-5, mitochondrial (SIRT5, Homo sapiens, UniProt Q9NXA8)
HRH2: Histamine H2 receptor (HRH2, Homo sapiens, UniProt P25021)

Cc1ccc2c(c1)C(=O)[C@]1(O)CCN(c3ccc4nc(C)ccc4c3)C1=N2.Cl
inhibition (KCNJ2; concentration not given): < 25%

NC/C(=C\F)COc1cccc(Cn2c(=S)[nH]c(=O)c3[nH]cnc32)c1
inhibition (Amine oxidase copper-containing 3 (Canis lupus familiaris, UniProt A0A8I3MYY3); inhibitor; dog adipose tissue; 0.0002 µM): 4.51%

CN(C(=O)n1cnc(-c2ccc[n+]([O-])c2)c1)C1CCCCC1
inhibition (NPY2R (Homo sapiens, UniProt P49146); 10 µM): 10.5%

COc1cc(-c2cc(-c3ccc(N4CCNCC4)cc3)cnc2C)cc(OC)c1OC
inhibition (Mitogen-activated protein kinase kinase kinase 7, with TAB1 (MAP3K7, Homo sapiens, UniProt O43318); kinome profiling; 0.1 µM): 1%

Clc1cccc(OC[C@H]2CN(CCN3CCc4ccccc43)CCO2)c1
inhibition (HTR6; radioligand binding; concentration not given, added: [3H]LSD): 9.2%

CCOC(=O)C1=CCCC[C@H]1S(=O)(=O)Nc1ccc(F)cc1Cl
inhibition (TLR4 (Homo sapiens, UniProt O00206); LPS binding, antagonist, ELISA; 1 µg/mL, added: LPS; baseline: DMSO control): 47.7% and 44.3% and 43.9% and 44.6%

O=C(Nc1cccc2c(=O)cc(-c3nnn[nH]3)oc12)c1ccc(OCCCCc2ccccc2)cc1
inhibition (Volume-regulated anion channel subunit LRRC8C, part LRRC8A IL1 chimera (LRRC8C, Homo sapiens, UniProt Q8TDW0, Y126F); ion current, inhibitor, whole-cell patch clamp; HCT LRRC8-/- cells; 10 µM, +100 mV): 95.7% and 90.2% and 88.8% and 92.8%

COCCOCCOCCNC(=O)c1sc2nc(C)cc(C)c2c1N
inhibition (NT5E membrane-bound form; CD73 activity, inhibitor, malachite green phosphate; MDA-MB-231; 100 µM, added: 200 µM AMP): -3 ± 7%

O=C(CN1CCO[C@H](COc2cccnc2)C1)N1CCc2ccccc21
inhibition (HTR6; radioligand binding; concentration not given, added: [3H]LSD): 16.6%

Cc1ccc(C(=O)Nc2ccc3ccccc3c2)o1
inhibition (PACC1 (Homo sapiens, UniProt Q9H813); ion current, inhibitor, whole-cell patch clamp; 10 µM): 1.88% and 0.97% and 0% and 2.44% and 7.4%

COc1ccc2c(c1)C(=O)N(CCCN1CCN(c3ccccc3OC)CC1)C2
inhibition (HTR6; radioligand binding; concentration not given, added: [3H]LSD): -11.3%

COc1cc2c3c(c1OC)-c1cc4c(cc1CC3N(C)CC2c1ccccc1)OCO4 (stereo not shown)
inhibition (sigma-2; binding, radioligand binding; concentration not given): < 50%

Cc1cc(-c2ccccc2)c2c(N)c(C(=O)Nc3ccon3)sc2n1
inhibition (NT5E membrane-bound form; CD73 activity, inhibitor, malachite green phosphate; MDA-MB-231; 100 µM, added: 200 µM AMP): 25 ± 4%

Cn1cc(-c2cnc3ccc(NC(=O)Nc4ccc(F)c(Br)c4)cc3n2)cn1
inhibition (MAP3K3 (Homo sapiens, UniProt Q99759); kinase binding, KiNativ profiling, measured: Lys1 peptide; PANC-1 lysate; 10 µM): 11.8%

CNc1cc(Oc2cc(C(=O)Nc3cc(N4CCN(C)CC4)cc(C(F)(F)F)c3)ccc2C)ncn1
inhibition (SLK (Homo sapiens, UniProt Q9H2G2); probe labelling, KiNativ; Huh-7, live cells; 1 µM, Lys1 site): -17.4%

COc1nc(NCc2cn(-c3ccc(C(=O)Nc4ccc(C(F)(F)F)cc4)cc3)nn2)nc(OC)n1
inhibition (MMP13; inhibitor; 0.1 µM): 21.9 ± 0.786%

Cc1cc(C(F)(F)F)c2c(N)c(C(=O)NCc3ccccc3)sc2n1
inhibition (NT5E membrane-bound form; CD73 activity, inhibitor, malachite green phosphate; MDA-MB-231; 100 µM, added: 200 µM AMP): 22 ± 7%

CCC1(c2ccccc2)NC(=O)NC1=O (stereo not shown)
inhibition (GABA-A receptor alpha-1/beta-3, with gamma-2 subunit (GABRA1/GABRB3, Homo sapiens, UniProt P14867+P28472); etomidate-enhanced [3H]muscimol binding; 300 µM, α1β3γ2 receptor): 38%

CC(C)c1noc2ncc(C(=O)c3ccccc3O)cc12
inhibition (KCNJ2; ion current, inhibitor, whole-cell patch clamp; 10 µM): 3.7% and 2.7% and 0% and 4.7%

COc1cc(-c2cc(C(C)=O)n3ccccc23)c(OC)cc1Cn1ccnc1
inhibition (BAZ2B; binding, inhibitor, AlphaScreen; 1 µM): -31.4%

CC[C@@H]1[C@H](F)C(=O)N[C@@H]1COc1nccc2cc(C(N)=O)c(OC)cc12
inhibition (ULK1 (Homo sapiens, UniProt O75385); ATP-site probe binding, ActivX profiling; THP-1 cell lysate; 0.2 mM, Lys1 site): 6.2%

COC(=O)c1ccc(-c2nc(-c3cccc(C)c3)c(-c3ccncc3)[nH]2)cc1
inhibition (CSNK1E; kinase activity; 1 µM): 43%

NS(=O)(=O)CCNC(=S)NCCCC[C@H](NS(=O)(=O)c1cccc(F)c1)C(=O)N[C@@H](Cc1c[nH]c2ccccc12)C(=O)NC1CCC1
inhibition (SIRT5; enzyme activity, inhibitor; 100 µM): < 0%

COc1cc(Cl)c(C(=O)N[C@@H](CN[C@H]2CC[C@@H](N)CC2)Cc2ccc(C#N)cc2)cc1-c1ccc(CN[C@H](C)c2ccc(C)cc2)o1
inhibition (HRH2; agonist response, antagonist; human cells; 10 µM, H2 antagonist): -4%

Cc1ccc(OC[C@@H]2CN(CCN3CCc4ccccc43)CCO2)cn1
inhibition (HTR6; radioligand binding; concentration not given, added: [3H]LSD): 8.5%

O=C(NC1CCC1)[C@H](Cc1c[nH]c2ccccc12)NC(=O)[C@H](CCCCNC(=S)NCCCO)NS(=O)(=O)c1cccc(F)c1
inhibition (SIRT5; enzyme activity, inhibitor; 100 µM): 9%

O=C(NO)c1ccc(CN2CCCCc3ccccc32)c(F)c1
inhibition (HRH2; radioligand binding, radioligand displacement; 10 µM, mean of replicates): -7.8%

O=C1c2ccccc2CCN1CCCCN1CCN(c2cccc(Cl)c2Cl)CC1
inhibition (HTR6; radioligand binding; concentration not given, added: [3H]LSD): 89.8%

CC(=O)ON=C1C=CC(=C(C#N)c2ccccc2)C=C1
inhibition (CSNK1E; kinase activity, inhibitor, ADP-Glo; 20 µM): 40%

COc1cc(C(=O)NS(=O)(=O)c2ccccc2C)ccc1Cc1cn(C)c2ccc(NC(=O)OC3CCCC3)cc12
inhibition (Volume-regulated anion channel subunit LRRC8C, part LRRC8A IL1 chimera (LRRC8C, Homo sapiens, UniProt Q8TDW0, C43G); ion current, inhibitor, whole-cell patch clamp; HCT LRRC8-/- cells; 100 µM, +100 mV): 96.9% and 94.4% and 94.9% and 96.2% and 96.3%

Fc1ccc(-c2ncn(C3=CCCCC3)c2-c2ccncc2)cc1
inhibition (CSNK1E; inhibitor; 1 µM): 84%

Cc1cc2c(cc1N1C(=O)c3cccc4c(CCCO)ccc(c34)C1=O)n(C)c(=O)n2C (racemic)
inhibition (BAZ2B; binding, BROMOscan binding; 1000 nM): 14%

CCN1/C(=C/C(C)=O)Sc2ccc(F)cc21
inhibition (OPRK1 (Homo sapiens, UniProt P41145); 10 µM): 17.7%

Cc1cc(C)c2c(N)c(C(=O)NCc3ccccc3)sc2n1
inhibition (NT5E membrane-bound form; CD73 activity, inhibitor, malachite green phosphate; MDA-MB-231; 100 µM, added: 200 µM AMP): 5 ± 6%

CCN(Cc1ccccc1C(F)(F)F)C(=O)C1CCN(S(=O)(=O)c2ccc3[nH]ncc3c2)CC1
inhibition (rat L-type calcium channel; radioligand binding; 10 µM, benzothiazepine site): 37%

Cc1cc(C)c(C#N)c(SCC(=O)NCc2ccccc2)n1
inhibition (NT5E membrane-bound form; CD73 activity, inhibitor, malachite green phosphate; MDA-MB-231; 100 µM, added: 200 µM AMP): 3 ± 6%

Cc1cccc(-c2nc[nH]c2-c2ccncc2)c1
inhibition (CSNK1E; kinase activity; 1 µM): 42%

CCOC(=O)c1ccc(NC(=O)CSc2nc(C)cc(C)c2C#N)cc1
inhibition (NT5E membrane-bound form; CD73 activity, inhibitor, malachite green phosphate; MDA-MB-231; 100 µM, added: 200 µM AMP): 20 ± 4%

O=C(C#Cc1cn(Cc2ccccc2)c(=O)[nH]c1=O)NCc1ccccc1
inhibition (MMP13; 6.5 µM): 32 ± 9%

CCOC(=O)c1ccc(NC(=O)c2sc3nc(-c4ccccc4)cc(C(F)(F)F)c3c2N)cc1
inhibition (NT5E membrane-bound form; CD73 activity, inhibitor, malachite green phosphate; MDA-MB-231; 100 µM, added: 200 µM AMP): 24 ± 1%

O=C1c2ccccc2CCCN1CCCCN1CCN(c2ccccn2)CC1
inhibition (HTR6; radioligand binding; concentration not given, added: [3H]LSD): 18.9%

Cc1cc(-c2ccccc2)nc2sc(C(=O)Nc3nccs3)c(N)c12
inhibition (NT5E membrane-bound form; CD73 activity, inhibitor, malachite green phosphate; MDA-MB-231; 100 µM, added: 200 µM AMP): 8 ± 3%

Cc1cccc(C(=O)Nc2nc3ccccc3[nH]2)c1
inhibition (ADORA2A (Homo sapiens, UniProt P29274); 30 µM): 6 ± 3%

Repeated from above:
CCOC(=O)c1ccc(NC(=O)c2sc3nc(-c4ccccc4)cc(C(F)(F)F)c3c2N)cc1
inhibition (NT5E membrane-bound form; CD73 activity, inhibitor, malachite green phosphate; MDA-MB-231; 100 µM, added: 200 µM AMP): 24 ± 1%

Cc1cccc(-c2nc[nH]c2-c2ccncc2)c1
inhibition (CSNK1E; kinase activity; 1 µM): 42%

Cc1cc2c(cc1N1C(=O)c3cccc4c(CCCO)ccc(c34)C1=O)n(C)c(=O)n2C (racemic)
inhibition (BAZ2B; binding, BROMOscan binding; 1000 nM): 14%
